Assay results of several laboratories.
Lines come from different studies, so protocols differ. Several values in a cell are separate wells, animals, samples, runs or records. ± gives the spread as reported.

SMILES = C[N+](C)(CCOCCOCCOCCNC(=S)Nc1ccc(C[C@H]2CN(CC(=O)[O-])CCN(CC(=O)[O-])CCN2CC(=O)[O-])cc1)C[c-]1cccc1.[64Cu+2].[Fe+2].c1cc[cH-]c1; test system = nude mice, BxPC-3 xenograft, large intestine; setting = 8 h, pretargeted, 144 h lag time; endpoint = large intestine uptake; result = 2.3 ± 0.3 %ID/g
SMILES = CCCCN1C(=O)c2cccc3c(NCCN4CCOCC4)ccc(c23)C1=O; test system = ethyl acetate; endpoint = fluorescence quantum yield; result = 0.09
SMILES = CCC(C(=O)Nc1ccc(C(N)=O)c(F)c1)n1cc(OC)c(-c2cc(Cl)ccc2-n2cc(C(F)(F)F)nn2)cc1=O (stereo not drawn); test system = healthy male humans; setting = 50 mg, required by protocol; endpoint = procedure-related adverse events; result = 0%
SMILES = COC(=O)[C@@]1(C(C)C)C=C(C(=O)Nc2cccc(C(=O)Nc3ccc(Nc4nccc(-c5cccnc5)n4)c(C)c3)c2)C(=O)CC1; test system = rat, plasma; setting = 10 µM, 120 min; endpoint = compound remaining; result = 77.9%
SMILES = O=C(Nc1cnccc1-c1ccc([18F])cc1)c1ccnc(NC(=O)C2CC2)c1; test system = FVB/NJ mice (both sexes), skin; setting = intravenous, dose not given, 120 min, together with: tariquidar 15 mg/kg i.v. pre-dose; endpoint = SUV; result = 0.23
SMILES = COc1cnc2cccc(N3CCc4c(cc(Cn5ccnc5)cc4-c4cn(C)nc4C(F)(F)F)C3=O)c2c1; test system = male CD-1 mouse, plasma; setting = oral, 50 mg/kg; endpoint = MRT(0-inf); result = 2.4 h
SMILES = CC[C@H](C)[C@H](NC(=O)[C@@H](NC(=O)[C@H](CCCCN)NC(=O)[C@@H](NC(=O)[C@@H]1CCCN1[C@@H]1CN(C(=O)[C@@H](NC(=O)[C@@H](NC(=O)[C@@H](NC(=O)[C@@H](NC(=O)[C@@H](NC(=O)[C@@H](N)CCCCN)C(C)C)C(C)C)C(C)C)[C@@H](C)CC)[C@@H](C)O)CC[C@H]1NS(=O)(=O)c1ccc(C)cc1)[C@@H](C)O)C(C)C)C(=O)N[C@@H](CC(C)C)C(=O)N[C@@H](Cc1c[nH]cn1)C(N)=O; test = CD spectroscopy; test system = 20 mM phosphate buffer; setting = 125 µM, 37 °C; endpoint = random coil content; result = 56%
SMILES = N#C[C@@H]1CCCN1C(=O)CNC(=O)c1ccnc2ccc(OCCCN3CCN(C(=O)CCc4ccc(O)c(CN5CCN6CC(=O)[O][Al-]([18F])([O]C(=O)C5)[O]c5ccc(CCC(=O)N7CCN(CCCOc8ccc9nccc(C(=O)NCC(=O)N%10CCC[C@H]%10C#N)c9c8)CC7)cc5C6)c4)CC3)cc12 (stereo partly drawn); test system = BALB/c nude mice, U-87 MG tumour; setting = 120 min post-injection; scale = baseline: tumour over bone; endpoint = tumour-to-organ ratio; result = 4.36 ± 2.14
SMILES = C=C(NC(=O)c1csc(-c2nc3c(cc2O)-c2nc(cs2)C(=O)NC(C(C)O)C(=O)NC(=C(C)OC)c2nc(cs2)C(=O)NC2c4nc(cs4)C(=O)NC(COC(=O)c4c5c6c(cccc6n4O)COC(=O)C(OC4CC(C)(O)C(N(C)C)C(C)O4)C2OC5)c2nc-3cs2)n1)C(N)=O (stereo not drawn); test system = ICR mice, Streptococcus pneumoniae ATCC 49169 infected, immunocompromised, blood; setting = intravenous, 32 mg/kg/day three times daily; endpoint = Tmax; result = 6.08 h
SMILES = O=C(NS(=O)(=O)c1cccs1)c1cc2ccccc2n1Cc1ccc(Br)c2ccccc12; test system = KM mouse, chronic hyperuricaemia model; setting = dose not given, day 22; endpoint = body weight; result = 33 g and 39.2 g and 37.6 g and 36.2 g and 34.9 g and 36.6 g
SMILES = CCCCN1C(=O)c2cccc3c(NCCCCCCCCCCN4CCOCC4)ccc(c23)C1=O; test system = toluene; endpoint = fluorescence quantum yield; result = 1.03
SMILES = CC(=O)N([O-])CCCCCNC(=O)CCC(=O)N([O-])CCCCCNC(=O)CCC(=O)N([O-])CCCCCN.[89Zr+4]; test = radio-TLC; test system = aqueous buffer; setting = 1 d, pH 7, 37 °C, 89Zr-labelled complex, together with: DTPA 100-fold excess; endpoint = intact complex; result = 99.6 ± 0.4%
SMILES = Cc1ncsc1-c1ccc(CNC(=O)[C@@H]2C[C@@H](O)CN2C(=O)[C@@H](NC(=O)COCC(C)(COCCOCCOCCNC(=O)C[C@@H]2N=C(c3ccc(Cl)cc3)c3c(sc(C)c3C)-n3c(C)nnc32)COCCOCCOCCNC(=O)C[C@@H]2N=C(c3ccc(Cl)cc3)c3c(sc(C)c3C)-n3c(C)nnc32)C(C)(C)C)cc1; test system = male C57BL/6 mouse, plasma; setting = intravenous, 5 mg/kg, 2 h, single dose; endpoint = concentration; result = 2970 ng/mL
SMILES = COc1ccc2c(c1)C(C)(C)C(/C=C/C1=C(Oc3ccc(C(=O)NCCCCOc4cc(CN(Cc5ccccn5)Cc5ccccn5)cc(CN(Cc5ccccn5)Cc5ccccn5)c4)cc3)C(=C/C=C3/N(CCCCS(=O)(=O)[O-])c4ccc(OC)cc4C3(C)C)CCC1)=[N+]2CCCCS(=O)(=O)[O-].O=[N+]([O-])[O-].O=[N+]([O-])[O-].[99Tc+].[C-]#[O+].[C-]#[O+].[C-]#[O+].[Zn+2]; test = radio-TLC; test system = mouse serum; setting = 2 h, 37 °C; endpoint = intact compound; result = 98.7%
SMILES = Cc1cc(-c2ccc(C(=O)[C@@H]3CCCC[C@H]3C(=O)Nc3cnn4c3C(=O)NCC4)cc2)[nH]n1; test system = human, urine; setting = oral, 200 mg, 120-144 h; scale = baseline: dose; endpoint = radioactivity recovery per interval; result = < 0.01% and 0.01% and 0.05%
SMILES = O=C([O-])CN1CCN(CC(=O)[O-])CCN(C(CO)C(O)CO)CCN(CC(=O)[O-])CC1.[Dy+3] (stereo not drawn); test = ICP-MS; test system = cynomolgus monkey; setting = dose not given, 1 d 24 h, mass balance group; scale = baseline: dose; endpoint = cumulative urinary excretion; result = 95.9%
SMILES = CC[C@H](C)[C@@H]1NC(=O)[C@H](Cc2ccc(O)cc2)NC(=O)CCCSC[C@@H](C(=O)N(CC(=O)N[C@@H](CC(C)C)C(=O)NCC(N)=O)Cc2ccc(F)cc2)NC(=O)[C@H](CC(N)=O)NC(=O)[C@H](CCC(N)=O)NC1=O; test system = human; setting = intranasal and intravenous, 400 µg intranasal and 20 µg intravenous; endpoint = severe adverse events; result = 0%
SMILES = Cc1ccc(CN2C(=O)/C(=N\c3ccc(Cl)cc3Br)c3ccccc32)cc1; test system = mouse, blood; setting = 150 mg/kg; endpoint = MCHC; result = 323 ± 3.67 g/L
SMILES = Cc1ncsc1-c1ccc(C(C)NC(=O)C2CC(O)CN2C(=O)C(NC(=O)CCCCCCCCCCN2CCCC(Nc3ncc(Cl)c(Nc4ccccc4S(=O)(=O)C(C)C)n3)C2)C(C)(C)C)cc1 (stereo not drawn); tested on = 22Rv1; test = RNA-seq, item: PRDM11 mRNA; setting = concentration not given; scale = baseline: DMSO; endpoint = log2 fold change; result = -2.76
SMILES = O=C(Nc1cnccc1-c1ccc([18F])nc1)c1ccnc(NC(=O)C2CC2)c1; test = ex vivo gamma counting; test system = FVB/NJ mice, both sexes, blood; setting = intravenous, 120 min, mean, P-gp inhibitor pretreatment, together with: tariquidar 15 mg/kg iv; endpoint = SUV; result = 0.184
SMILES = O=C([O-])CN1CCN(CC(=O)[O-])CCN(Cc2cccc(C(=O)[O-])n2)CC1.[18F-].[Sc+3]; test system = mouse, muscle; setting = intravenous, 1 h; endpoint = tracer uptake; result = 0.06 %ID/g
SMILES = N=C(N)NCCC[C@@H]1NC(=O)[C@H](CO)NC(=O)[C@@H](NC(=O)[C@H](CO)NC(=O)[C@H](CO)NC(=O)[C@H](Cc2c[nH]c3ccccc23)NC(=O)CNC(=O)[C@H](CO)NC(=O)[C@@H](N)Cc2c[nH]c3ccccc23)CSSC[C@@H](C(=O)NCC(=O)O)NC(=O)[C@H](CO)NC1=O; test system = patients, plasma; setting = intravenous, 10 mg/kg, thrice weekly, median; endpoint = Ctrough; result = 0 ng/mL
SMILES = C=CC(=O)Nc1cc(Nc2nccc(-c3c[nH]c4ccccc34)n2)c(OC)cc1N(C)CCN(C)C; test = storage stability; test system = human dried blood spot; setting = 2 h, -80 °C, LQC level; endpoint = recovery; result = 101%
SMILES = CN([O-])C(=O)CN1CCNCCN(CC(=O)N(C)[O-])CC1.[89Zr+4]; test = radio-TLC; test system = human serum; setting = 7 days, run 1; endpoint = intact complex; result = 100%
SMILES = CN(Cc1ccccc1)C(=O)CN1CCN(CC(=O)[O-])CCN(CC(=O)N(C)Cc2ccccc2)CC1.[44Sc+3]; test system = mouse, brain; setting = intravenous, 1 h; endpoint = tracer uptake; result = 0.09 %ID/g
SMILES = COC1CN([C@H]2CC[C@H]([C@@]3(C)Oc4c(Cl)cc(C(=O)NCc5c(SC)cc(C)[nH]c5=O)c(C)c4O3)CC2)C1; test = RNA-seq, item: ENAH; test system = human, whole blood; setting = dose not given, 24 h; scale = baseline: pretreatment baseline; endpoint = log2 fold change; result = 1.7
SMILES = CN(Cc1ccccc1)C(=O)CN1CCN(CC(=O)[O-])CCN(Cc2cccc(C(=O)[O-])n2)CC1.[18F-].[Sc+3]; test system = mouse, kidney; setting = intravenous, 1 h; endpoint = tracer uptake; result = 1.47 %ID/g
SMILES = COC1C=COC2(C)Oc3c(C)c(O)c4c(c3C2=O)C2=NC3(CCN(CC(C)C)CC3)NC2=C(NC(=O)C(C)=CC=CC(C)C(O)C(C)C(O)C(C)C(OC(=O)c2cncnc2)C1C)C4=O (stereo not drawn); test system = CD-1 mouse female, plasma; setting = intravenous, 5 mg/kg; endpoint = elimination rate constant; result = 2.69e-05 s⁻¹
SMILES = O=C([O-])CN1CCN(CC(=O)[O-])CCN(CC(=O)[O-])CC1.[44Sc+3]; test system = mouse, brain; setting = intravenous, 1 h; endpoint = tracer uptake; result = 0.04 %ID/g
SMILES = OB(O)c1sccc1/C=N/OCc1ccccc1; test = chemical stability; test system = PBS; setting = 80 µM, pH 9; endpoint = half-life; result = 1.73 h
SMILES = C/C(N)=N/C(=N\S(=O)(=O)c1ccc(C(F)(F)F)cc1)N1C[C@H](c2ccccc2)C(c2ccc(Cl)cc2)=N1; test system = C57BL/6 mouse male, adipose tissue; setting = intravenous, 10 mg/kg; endpoint = t1/2; result = 3.3 h
SMILES = C=CC(=O)Nc1cc(Nc2nccc(-c3cn(C)c4ccccc34)n2)c(OC)cc1N(C)CCNC; test = storage stability; test system = human plasma; setting = 72 h, -80 °C, medium QC level; endpoint = recovery; result = 98.1%
SMILES = COc1cccc(OC)c1-c1cc(C(=O)NC2(C(=O)O)C3CC4CC(C3)CC2C4)nn1-c1ccc(C(=O)N(C)CCOCCOCCN(C)C(=O)[C@H](CCCCNC(=O)[C@H](CC(C)C)NC(=O)C2OC2C(=O)O)NC(=O)CN2CCN(CC(=O)[O-])CCN(CC(=O)[O-])CCN(CC(=O)[O-])CC2)cc1C(C)C.[177Lu+3] (mixture of isomers); test system = HT-29 xenograft mouse, kidney; setting = 168 h; scale = baseline: initial uptake; endpoint = renal retention; result = 17 ± 7%

Repeated from above:
SMILES = N#C[C@@H]1CCCN1C(=O)CNC(=O)c1ccnc2ccc(OCCCN3CCN(C(=O)CCc4ccc(O)c(CN5CCN6CC(=O)[O][Al-]([18F])([O]C(=O)C5)[O]c5ccc(CCC(=O)N7CCN(CCCOc8ccc9nccc(C(=O)NCC(=O)N%10CCC[C@H]%10C#N)c9c8)CC7)cc5C6)c4)CC3)cc12 (stereo partly drawn); test system = BALB/c nude mice, U-87 MG tumour; setting = 120 min post-injection; scale = baseline: tumour over bone; endpoint = tumour-to-organ ratio; result = 4.36 ± 2.14
SMILES = O=C([O-])CN1CCN(CC(=O)[O-])CCN(CC(=O)[O-])CC1.[44Sc+3]; test system = mouse, brain; setting = intravenous, 1 h; endpoint = tracer uptake; result = 0.04 %ID/g
